Measured values of several laboratories.
“And” joins repeats or separate records; there may be more than shown. ± gives the spread as reported.
DRD3: D(3) dopamine receptor (DRD3, Homo sapiens, UniProt P35462)
CDK2: Cyclin-dependent kinase 2 (CDK2, Homo sapiens, UniProt P24941)
Genome polyprotein NS3 helicase domain: Genome polyprotein, NS3 helicase domain (Hepatitis C virus genotype 1b, UniProt Q9WMX2)

Cn1cc(-c2ccc(-c3cncc(Cl)c3N3CCC4(CCNC4=O)CC3)cc2)cn1
log2 fold change (COLO 205; gene expression, microarray, item: CA9 mRNA; concentration not given, 6 h; baseline: untreated cells): -1.09

Cn1c(=O)c2[nH]cnc2n(C)c1=O
inhibition (Glutamate receptor 2 (Homo sapiens, UniProt P42262); ion current, negative allosteric modulator, SyncroPatch patch clamp; HEK293; 3 µM): -1%

Cc1ccc(OC[C@@H]2CN(CCN3CCc4ccccc43)CCO2)cn1
inhibition (DRD3; radioligand binding; concentration not given, together with: [3H]N-methylspiperone): 34.5%

O=C(Cc1ccccc1[N+](=O)[O-])Nc1ccccc1C(=O)N1CCOCC1
Kd (CDK2; binding): > 100 µM

COc1cccc(C2NCCc3cc(O)c(O)cc32)c1 (stereo not shown)
inhibition (tyrosinase; enzyme activity, inhibitor; 100 µM, together with: levodopa): 27.9 ± 1.19%

O=C(NO)c1ccc(CN2CCCCc3ccccc32)c(F)c1
inhibition (DRD3; radioligand binding, radioligand displacement; 10 µM): 18.4%

Cn1cc(-n2cnc3c(NCc4nc5cc(Cl)c(Cl)cc5[nH]4)nc(N4CCOCC4)nc32)cn1
inhibition (Cyclin-dependent kinase 12, with cyclin K (CDK12, Homo sapiens, UniProt Q9NYV4); kinase activity, inhibitor, ADP-Glo; 0.0001 µM): 14.7%

Cc1ccnc(OC[C@H]2CN(CC(=O)N3CCc4ccccc43)CCO2)c1
inhibition (DRD3; radioligand binding; concentration not given, together with: [3H]N-methylspiperone): 2.5%

O=C(O)c1cccc(CSc2nnc(-c3ccncc3)o2)c1
Kd (CDK2; binding): > 100 µM

Nc1ccn([C@H]2CC[C@@H](CO)O2)c(=O)n1
inhibition (Genome polyprotein NS3 helicase domain; DNA binding, inhibitor; hepatitis C virus; 100 µM, together with: Cy5-dT15 DNA): 0%

CC[C@@H]1[C@H](F)C(=O)N[C@@H]1COc1nccc2cc(C(N)=O)c(OC)cc12
inhibition (Dual specificity mitogen-activated protein kinase kinase 4 (MAP2K4, Homo sapiens, UniProt P45985); ATP-site probe binding, ActivX profiling; THP-1 cell lysate; 0.01 mM, Lys2 site): -5.8%

Oc1ccc2ccccc2c1SSc1c(O)ccc2ccccc12
inhibition (Genome polyprotein NS3 helicase domain; DNA binding, inhibitor; hepatitis C virus; 100 µM, together with: Cy5-dT15 DNA): 3%

Cc1nc2sccn2c(=O)c1CCN1CCC(=C(c2ccccc2)c2ccc(F)cc2)CC1
inhibition (Diacylglycerol kinase alpha (Rattus norvegicus, UniProt P51556); kinase activity, inhibitor; HEK293T cell lysate; 50 µM; baseline: DMSO): ~72%

Cc1ccc(/C(=C\CN2CCCC2)c2ccccn2)cc1.Cl
inhibition (Genome polyprotein NS3 helicase domain; DNA binding, inhibitor; hepatitis C virus; 100 µM, together with: Cy5-dT15 DNA): 1%

Cc1cc(-c2ccnc3[nH]cc(F)c23)cc(F)c1[C@@]1(O)[C@H](C)CN(C(=O)CN)C[C@@H]1C
inhibition (CDK11 and CDK8; ATP probe binding, KiNativ, item: Lys2 site; HEK293T cell lysate; 0.1 µM): 14.9%

CCCCCCN(CCCCCC)C(=O)Cc1c(-c2ccc(F)cc2)[nH]c2ccccc12
inhibition (Genome polyprotein NS3 helicase domain; DNA binding, inhibitor; hepatitis C virus; 100 µM, together with: Cy5-dT15 DNA): 1%

C#Cc1cccc(Nc2ncnc3cc(OCCOC)c(OCCOC)cc23)c1
inhibition (Insulin-like receptor (daf-2, Caenorhabditis elegans, UniProt Q968Y9); inhibitor, radiometric phosphocellulose; 10 µM, together with: ATP 0.2 mM): ~24%

CC(C)C[C@H](NC(=O)C[C@H](O)[C@H](CC(C)C)NC(=O)[C@H](Cc1c[nH]cn1)NC(=O)CNC(=O)[C@@H](NC(=O)[C@H](C)NC(=O)[C@H](Cc1c[nH]c2ccccc12)NC(=O)[C@H](CCC(N)=O)NC(=O)[C@@H](Cc1ccccc1)NC(=O)COCCOCCNC(=O)CCC(C(=O)O)N1CCN(CC(=O)O)CCN(CC(=O)O)CCN(CC(=O)O)CC1)C(C)C)C(N)=O (stereo partly shown) [lutetium-177 labelled]
tissue uptake (BALB/c nu/nu mice, female, carcass incl. GI tract contents; intravenous, 50 pmol, 1 h): 2.7 ± 0.6 %ID

CCCCCCCCCCCCCCC[C@H](O)[C@H](N)CO (racemic)
inhibition (Genome polyprotein NS3 helicase domain; DNA binding, inhibitor; hepatitis C virus; 100 µM, together with: Cy5-dT15 DNA): 4%

CC(C)C[C@H](NC(=O)C[C@H](O)[C@H](CC(C)C)NC(=O)[C@H](Cc1c[nH]cn1)NC(=O)CNC(=O)[C@@H](NC(=O)[C@H](C)NC(=O)[C@H](Cc1c[nH]c2ccccc12)NC(=O)[C@H](CCC(N)=O)NC(=O)[C@@H](Cc1ccccc1)NC(=O)COCCOCCNC(=O)CN1CCN(CC(=O)O)CCN(CC(=O)O)CCN(CC(=O)O)CC1)C(C)C)C(N)=O [lutetium-177 labelled]
tissue uptake (female BALB/c nu/nu mice, intestines; intravenous, 50 pmol, 24 h): 0.014 ± 0.006 %ID/g

CCCCCC(O)c1cccc(OCc2ccc3ccccc3n2)c1 (stereo not shown)
inhibition (Genome polyprotein NS3 helicase domain; DNA binding, inhibitor; hepatitis C virus; 100 µM, together with: Cy5-dT15 DNA): 1%

NC/C(=C\F)COc1cccc(Cn2c(=S)[nH]c(=O)c3[nH]cnc32)c1
inhibition (Amine oxidase [copper-containing] 3 (AOC3, Homo sapiens, UniProt Q16853); H2O2 production, Amplex Red; 0.0412 µM, recombinant human enzyme): 83.8% and 86.8%

O=C1NC(=O)C(c2ccccc2)(c2ccccc2)N1
inhibition (Voltage-gated potassium channel, KQT; KCNQ2(Kv7.2)/KCNQ3(Kv7.3) (KCNQ3/KCNQ2, Homo sapiens, UniProt O43525+O43526); ion current, antagonist, SyncroPatch patch clamp; HEK293; 10 µM): 0%

COc1cc2ncnc(Nc3ccc(Oc4ccccc4)c(C)c3C)c2cc1OC
inhibition (Protein kinase C beta type, isoform beta-II (PRKCB, Homo sapiens, UniProt P05771); kinase activity, inhibitor; 1 µM): 10%

CNCc1ccc(-c2[nH]c3cc(F)cc4c3c2CCNC4=O)cc1
AST/ALT increased incidence (human patients; oral, 840 mg twice daily, all grades): 33.3%
